Experimental data of several laboratories.
A part holds a random share of what one study measured. Changes are numbered by the printed parent chain.
UniProt P19784, sequence (whole entry, looked up): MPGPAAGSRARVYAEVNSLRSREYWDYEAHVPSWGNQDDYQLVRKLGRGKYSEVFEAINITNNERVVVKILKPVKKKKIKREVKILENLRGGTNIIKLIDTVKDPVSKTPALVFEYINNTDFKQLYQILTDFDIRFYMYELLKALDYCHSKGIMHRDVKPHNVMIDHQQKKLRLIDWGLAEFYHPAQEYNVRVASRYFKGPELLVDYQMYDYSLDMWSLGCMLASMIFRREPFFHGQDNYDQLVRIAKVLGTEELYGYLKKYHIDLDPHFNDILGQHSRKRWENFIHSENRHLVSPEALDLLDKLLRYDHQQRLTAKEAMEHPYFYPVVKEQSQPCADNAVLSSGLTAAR

Block 1
Target: Prothrombin, mature alpha-thrombin (F2, Homo sapiens, UniProt P00734)
Technique: aptamer microarray, sandwich
Molecule type: DNA with 2'F-ANA
Matrix: in vitro
Tested at: 200 nM
Notes: whole 15-mer aptamer, many near background
Added: Cy3 exosite-II aptamer, 400 nM
Direction: higher = stronger binding
Sequence: GGTTGGTGTGGTTGG
For `2'F-ANA at 1 2 5 6 7 9 10 11 13`, “mean fluorescence intensity” read 55.4 a.u.
`2'F-ANA at 2 4 5 6 7 8 9 10 15`: “mean fluorescence intensity” 46 a.u.
`2'F-ANA at 2 4 5 6 7 8 9 10 12 13 15` — result for “mean fluorescence intensity”: 53 a.u.
`2'F-ANA at 2 4 6 9 11 12 14` — result for “mean fluorescence intensity”: 102 a.u.
For `2'F-ANA at 1 3 10 15`, “mean fluorescence intensity” read 217 a.u.
For `2'F-ANA at 4 5 6 8 12 13 15`, “mean fluorescence intensity” read 90.4 a.u.
For `2'F-ANA at 2 3 7 10 11 12 13 15`, “mean fluorescence intensity” read 458 a.u.
`2'F-ANA at 2 5 11 12`: “mean fluorescence intensity” 122 a.u.

Block 2
Target: Hepatocyte nuclear factor 3-beta, forkhead domain (FOXA2, Homo sapiens, UniProt Q9Y261, residues 142-269)
Technique: protein-binding microarray
Molecule type: double-stranded DNA, one strand shown
Matrix: in vitro
Tested at: not given
Notes: k-mer, scored over probes, only values ≥0.25
Direction: higher = stronger binding
Target sequence (chain): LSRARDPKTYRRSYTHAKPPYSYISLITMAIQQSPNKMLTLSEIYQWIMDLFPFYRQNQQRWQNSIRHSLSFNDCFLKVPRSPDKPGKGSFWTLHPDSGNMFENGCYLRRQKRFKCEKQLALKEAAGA
With `TACAAACA` the E-score was 0.41.
`CACTCATA` has an E-score of 0.321.
`ATTTGATA` has an E-score of 0.282.
With `AATTTATG` the E-score was 0.252.
With `AATAATGT` the E-score was 0.324.
The E-score of `GCATTATA` is reported as 0.299.
With `CAACAATG` the E-score was 0.286.
`ATTTATAC` gave an E-score of 0.338.

Block 3
Target: CREB3, bZIP domain (human)
Technique: DHFR protein complementation
Matrix: yeast
Notes: single substitutions, most at no-binding floor
Baseline: wild-type JUN-FOS pair
Direction: higher = stronger binding
Starting sequence: JUN, bZIP domain (human); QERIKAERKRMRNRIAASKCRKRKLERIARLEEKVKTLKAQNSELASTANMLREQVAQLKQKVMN; partner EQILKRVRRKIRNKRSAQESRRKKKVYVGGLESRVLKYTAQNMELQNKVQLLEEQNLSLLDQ
With `E32S` the binding fitness was -1.49 natural log.
The binding fitness of `V35R` is reported as -1.48 natural log.
The binding fitness of `A49D` is reported as -1.49 natural log.
`Q55T` has a binding fitness of -1.57 natural log.
For `A49V`, the binding fitness was -1.42 natural log.
With `M51T` the binding fitness was -1.27 natural log.
`L45T` has a binding fitness of -1.42 natural log.
The binding fitness of `S43E` is reported as -1.26 natural log.

Other studies, line by line
For `NC(=O)c1ccc(N(C(N)=O)c2c(F)cccc2F)nc1-c1ccc(F)cc1F`, the remaining activity was 109% (Casein kinase II subunit alpha' (CSNK2A2, Homo sapiens, UniProt P19784); enzyme activity, inhibitor; 0.5 µM; baseline: control).
